Experimental data pooled from the literature.
Numbered parts are unrelated; each lists some results of a single study.
Chain of UniProt P10721 (whole entry, unmodified, looked up): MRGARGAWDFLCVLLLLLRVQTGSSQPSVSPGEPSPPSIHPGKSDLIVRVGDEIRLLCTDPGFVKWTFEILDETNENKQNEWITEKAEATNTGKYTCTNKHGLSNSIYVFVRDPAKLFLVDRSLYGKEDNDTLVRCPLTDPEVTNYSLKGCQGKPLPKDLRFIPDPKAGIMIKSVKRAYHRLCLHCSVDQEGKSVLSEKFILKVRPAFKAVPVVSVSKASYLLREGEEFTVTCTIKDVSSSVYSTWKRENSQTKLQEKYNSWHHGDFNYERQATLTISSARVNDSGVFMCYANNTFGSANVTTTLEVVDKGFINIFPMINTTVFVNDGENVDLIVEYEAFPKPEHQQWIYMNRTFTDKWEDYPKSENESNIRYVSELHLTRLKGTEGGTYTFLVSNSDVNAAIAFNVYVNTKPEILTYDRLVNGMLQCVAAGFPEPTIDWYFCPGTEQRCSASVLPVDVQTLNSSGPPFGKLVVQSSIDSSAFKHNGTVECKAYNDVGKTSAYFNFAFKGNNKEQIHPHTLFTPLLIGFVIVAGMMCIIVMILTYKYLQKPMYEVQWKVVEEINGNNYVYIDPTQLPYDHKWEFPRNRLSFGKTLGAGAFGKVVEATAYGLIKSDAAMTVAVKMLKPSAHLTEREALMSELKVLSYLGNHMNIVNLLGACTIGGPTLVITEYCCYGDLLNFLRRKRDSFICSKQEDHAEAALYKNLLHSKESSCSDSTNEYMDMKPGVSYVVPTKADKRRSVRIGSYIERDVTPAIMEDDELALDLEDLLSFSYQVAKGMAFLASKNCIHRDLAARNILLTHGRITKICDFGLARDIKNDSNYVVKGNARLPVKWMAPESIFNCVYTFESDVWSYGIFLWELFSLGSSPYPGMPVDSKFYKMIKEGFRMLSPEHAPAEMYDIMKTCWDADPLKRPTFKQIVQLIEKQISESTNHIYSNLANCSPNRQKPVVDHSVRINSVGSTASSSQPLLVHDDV
Chain of UniProt Q16644 (whole entry, looked up): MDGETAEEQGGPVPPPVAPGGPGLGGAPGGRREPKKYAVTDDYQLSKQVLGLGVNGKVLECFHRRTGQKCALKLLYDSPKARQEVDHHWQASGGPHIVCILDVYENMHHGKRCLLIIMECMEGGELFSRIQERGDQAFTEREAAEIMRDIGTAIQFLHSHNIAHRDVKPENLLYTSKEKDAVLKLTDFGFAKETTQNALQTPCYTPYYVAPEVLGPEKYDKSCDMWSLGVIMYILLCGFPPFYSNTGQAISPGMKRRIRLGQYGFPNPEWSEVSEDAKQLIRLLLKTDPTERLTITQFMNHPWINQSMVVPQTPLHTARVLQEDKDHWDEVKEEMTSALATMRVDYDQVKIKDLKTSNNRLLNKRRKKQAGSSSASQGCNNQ
Chain of UniProt Q8IU85 (whole entry, looked up): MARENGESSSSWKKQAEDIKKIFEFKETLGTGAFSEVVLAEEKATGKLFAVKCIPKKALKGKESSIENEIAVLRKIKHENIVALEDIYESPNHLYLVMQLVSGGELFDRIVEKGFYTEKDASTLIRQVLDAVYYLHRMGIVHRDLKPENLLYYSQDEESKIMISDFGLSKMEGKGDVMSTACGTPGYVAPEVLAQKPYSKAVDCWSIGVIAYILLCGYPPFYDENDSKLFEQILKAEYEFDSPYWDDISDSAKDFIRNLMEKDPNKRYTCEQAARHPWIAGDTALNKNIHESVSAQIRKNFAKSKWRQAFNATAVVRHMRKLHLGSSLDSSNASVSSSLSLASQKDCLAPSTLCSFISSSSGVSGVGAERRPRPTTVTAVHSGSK
Chain of UniProt P24723 (whole entry, looked up): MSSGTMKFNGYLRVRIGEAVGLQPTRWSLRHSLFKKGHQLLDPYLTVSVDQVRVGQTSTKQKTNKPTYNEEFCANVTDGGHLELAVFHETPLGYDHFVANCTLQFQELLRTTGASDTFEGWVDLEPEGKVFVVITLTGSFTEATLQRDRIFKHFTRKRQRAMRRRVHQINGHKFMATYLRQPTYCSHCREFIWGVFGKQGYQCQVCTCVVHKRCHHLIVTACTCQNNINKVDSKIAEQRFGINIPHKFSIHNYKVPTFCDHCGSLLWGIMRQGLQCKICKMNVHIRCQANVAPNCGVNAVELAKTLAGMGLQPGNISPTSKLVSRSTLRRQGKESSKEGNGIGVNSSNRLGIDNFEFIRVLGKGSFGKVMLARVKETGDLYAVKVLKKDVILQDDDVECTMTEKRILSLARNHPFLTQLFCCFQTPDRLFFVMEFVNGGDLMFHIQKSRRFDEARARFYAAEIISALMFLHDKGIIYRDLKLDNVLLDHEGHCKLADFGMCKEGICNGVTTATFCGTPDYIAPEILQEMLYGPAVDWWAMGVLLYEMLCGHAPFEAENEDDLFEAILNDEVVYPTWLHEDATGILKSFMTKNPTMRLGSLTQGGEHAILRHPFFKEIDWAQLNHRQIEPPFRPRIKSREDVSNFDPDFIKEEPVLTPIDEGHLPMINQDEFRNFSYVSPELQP
Chain of UniProt P54762 (whole entry, looked up): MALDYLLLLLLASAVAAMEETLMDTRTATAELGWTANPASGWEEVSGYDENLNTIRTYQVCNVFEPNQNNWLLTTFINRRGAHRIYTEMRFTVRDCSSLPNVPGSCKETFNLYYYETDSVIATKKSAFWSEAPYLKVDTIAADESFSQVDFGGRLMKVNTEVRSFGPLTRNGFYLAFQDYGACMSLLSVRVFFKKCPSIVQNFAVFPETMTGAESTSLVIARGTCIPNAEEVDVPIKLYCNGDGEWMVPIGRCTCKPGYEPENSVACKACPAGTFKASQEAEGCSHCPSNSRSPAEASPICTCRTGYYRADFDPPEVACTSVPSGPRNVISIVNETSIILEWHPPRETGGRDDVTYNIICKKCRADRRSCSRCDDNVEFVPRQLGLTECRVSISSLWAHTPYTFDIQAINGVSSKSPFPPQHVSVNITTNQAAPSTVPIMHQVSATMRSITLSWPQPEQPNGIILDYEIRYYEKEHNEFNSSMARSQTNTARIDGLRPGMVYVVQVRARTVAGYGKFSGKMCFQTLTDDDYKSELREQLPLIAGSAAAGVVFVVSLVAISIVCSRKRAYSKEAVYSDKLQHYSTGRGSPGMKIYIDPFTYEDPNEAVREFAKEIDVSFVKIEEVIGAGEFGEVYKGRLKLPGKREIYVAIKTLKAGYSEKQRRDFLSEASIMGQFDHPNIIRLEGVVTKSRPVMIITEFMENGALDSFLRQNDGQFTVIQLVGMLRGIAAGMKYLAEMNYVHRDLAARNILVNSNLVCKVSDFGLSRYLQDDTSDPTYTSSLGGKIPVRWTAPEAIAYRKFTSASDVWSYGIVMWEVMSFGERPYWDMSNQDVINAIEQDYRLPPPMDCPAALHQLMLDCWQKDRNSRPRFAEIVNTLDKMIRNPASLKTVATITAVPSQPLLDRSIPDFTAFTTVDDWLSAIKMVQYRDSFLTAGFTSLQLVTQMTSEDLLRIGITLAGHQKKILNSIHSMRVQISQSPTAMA
Chain of UniProt P30530 (whole entry, looked up): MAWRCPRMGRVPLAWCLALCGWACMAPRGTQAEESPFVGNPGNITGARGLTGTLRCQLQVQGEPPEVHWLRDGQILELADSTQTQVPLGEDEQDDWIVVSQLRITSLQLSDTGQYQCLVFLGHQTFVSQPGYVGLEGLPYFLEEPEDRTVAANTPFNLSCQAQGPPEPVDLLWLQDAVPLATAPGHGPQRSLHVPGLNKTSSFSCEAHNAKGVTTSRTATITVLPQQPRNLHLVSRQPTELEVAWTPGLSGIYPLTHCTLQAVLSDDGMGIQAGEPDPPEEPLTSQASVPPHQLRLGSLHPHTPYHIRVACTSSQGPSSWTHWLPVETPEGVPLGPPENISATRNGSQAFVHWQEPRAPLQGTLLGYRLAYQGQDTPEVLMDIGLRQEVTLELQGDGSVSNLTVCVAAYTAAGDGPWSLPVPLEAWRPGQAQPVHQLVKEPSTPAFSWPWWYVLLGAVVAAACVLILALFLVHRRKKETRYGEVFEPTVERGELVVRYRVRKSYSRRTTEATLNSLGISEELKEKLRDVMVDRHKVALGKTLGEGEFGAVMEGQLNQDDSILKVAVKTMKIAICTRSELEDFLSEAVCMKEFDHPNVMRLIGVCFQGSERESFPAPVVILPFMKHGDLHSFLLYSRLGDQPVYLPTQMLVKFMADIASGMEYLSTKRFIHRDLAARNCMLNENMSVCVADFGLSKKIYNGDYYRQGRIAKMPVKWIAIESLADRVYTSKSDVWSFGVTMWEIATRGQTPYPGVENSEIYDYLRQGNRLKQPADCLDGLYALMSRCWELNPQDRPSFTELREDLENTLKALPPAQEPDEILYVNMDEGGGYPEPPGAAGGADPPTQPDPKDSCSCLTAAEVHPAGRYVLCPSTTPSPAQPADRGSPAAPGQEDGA
Chain of UniProt Q00532 (whole entry, looked up): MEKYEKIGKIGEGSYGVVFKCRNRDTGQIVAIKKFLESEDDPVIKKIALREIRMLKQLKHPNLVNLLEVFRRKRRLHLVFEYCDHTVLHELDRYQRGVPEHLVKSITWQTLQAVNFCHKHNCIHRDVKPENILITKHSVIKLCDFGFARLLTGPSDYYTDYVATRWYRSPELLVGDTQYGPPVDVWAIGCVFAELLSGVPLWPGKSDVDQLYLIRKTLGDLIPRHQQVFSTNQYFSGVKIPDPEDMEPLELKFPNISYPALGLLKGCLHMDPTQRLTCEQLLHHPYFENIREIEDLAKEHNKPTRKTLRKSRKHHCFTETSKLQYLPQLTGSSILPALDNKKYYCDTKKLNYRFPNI
Chain of UniProt Q16816 (whole entry, looked up): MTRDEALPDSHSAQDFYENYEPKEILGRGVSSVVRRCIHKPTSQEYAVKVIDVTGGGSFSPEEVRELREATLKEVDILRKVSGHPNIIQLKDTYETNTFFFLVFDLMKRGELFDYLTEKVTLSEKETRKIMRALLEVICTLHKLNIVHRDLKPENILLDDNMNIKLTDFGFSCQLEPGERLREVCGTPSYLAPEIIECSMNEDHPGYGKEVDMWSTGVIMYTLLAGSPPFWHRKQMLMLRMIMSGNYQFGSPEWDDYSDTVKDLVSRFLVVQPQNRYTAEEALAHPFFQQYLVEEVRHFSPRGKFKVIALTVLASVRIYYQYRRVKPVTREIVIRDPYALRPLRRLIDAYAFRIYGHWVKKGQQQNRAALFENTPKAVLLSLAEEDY

Series 1
SMILES: Cc1cc(Nc2nc(-c3ccccc3)nc3ccccc23)n[nH]1
Observed: enzyme activity
Action: inhibitor
Concentration: 0.5 µM
Reference: control
It gave 76% for remaining activity (Cyclin-dependent kinase 1, with cyclin B (CDK1, Homo sapiens, UniProt P06493)).
The remaining activity was 101% (HIPK2 (Homo sapiens, UniProt Q9H2X6)).
The remaining activity was 71.7% (PHKG1 (Homo sapiens, UniProt Q16816)).
RPS6KA6 (Homo sapiens, UniProt Q9UK32) — remaining activity: 56.2%.
It gave 90.3% for remaining activity (PDPK1 (Homo sapiens, UniProt O15530)).
It gave 81% for remaining activity (MAPKAPK3 (Homo sapiens, UniProt Q16644)).
The remaining activity was 91.1% (EPHB4 (Homo sapiens, UniProt P54760)).
The remaining activity was 75.4% (ABL1 (Homo sapiens, UniProt P00519)).
It gave 97.7% for remaining activity (CAMK2B (Homo sapiens, UniProt Q13554)).
Cyclin-dependent kinase 6, with cyclin D3 (CDK6, Homo sapiens, UniProt Q00534) — remaining activity: 58.4%.
AXL (Homo sapiens, UniProt P30530) — remaining activity: 101%.
It gave 105% for remaining activity (TSSK2 (Homo sapiens, UniProt Q96PF2)).
EPHB1 (Homo sapiens, UniProt P54762) — remaining activity: 93.1%.
MAP4K4 (Homo sapiens, UniProt O95819) — remaining activity: 25.7%.
It gave 81.3% for remaining activity (STK17A (Homo sapiens, UniProt Q9UEE5)).
For HIPK4 (Homo sapiens, UniProt Q8NE63): remaining activity read 102%.
The remaining activity was 74.9% (WNK3 (Homo sapiens, UniProt Q9BYP7)).

Series 2
Target: Histone acetyltransferase KAT6A, winged helix 1, GST fusion (KAT6A, Homo sapiens, UniProt Q92794, residues 1-85)
Method: protein binding microarray
Molecule type: double-stranded DNA, one strand shown
Matrix: in vitro
Concentration: not given
Notes: 8-mer, flanks averaged, mean of 2 arrays, mostly near background
Reference: not given
Direction: higher = stronger binding
Residues (chain): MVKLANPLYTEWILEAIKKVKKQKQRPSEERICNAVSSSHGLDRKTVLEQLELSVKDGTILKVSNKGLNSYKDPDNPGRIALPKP
With `GGATTTCA` the E-score was -0.0937.
`CTCCACAA` has an E-score of -0.219.
`GCGACCGC` has an E-score of 0.374.
With `GAACCAGA` the E-score was -0.192.
With `CACCGTCA` the E-score was 0.222.
`GGAACGCA` has an E-score of 0.0906.
For `CCTTTCAA`, the E-score was -0.179.
`ATACTCAT` gave an E-score of -0.132.

Series 3
SMILES: Cc1c[nH]c2nccc(Oc3c(F)cc(Nc4cc(Cl)nc(N)n4)cc3F)c12
Concentration: 0.1 µM
For CAMK1D (Homo sapiens, UniProt Q8IU85); cell-free assay, competition with immobilised ligand: remaining binding read 94%.
For PLK2 (Homo sapiens, UniProt Q9NYY3); cell-free assay, competition with immobilised ligand: remaining binding read 59%.
For KIT (Homo sapiens, UniProt P10721, V559D); cell-free assay, competition with immobilised ligand: remaining binding read 90%.
CDKL2 (Homo sapiens, UniProt Q92772); cell-free assay, competition with immobilised ligand — remaining binding: 93%.
The remaining binding was 100% (LRRK2 (Homo sapiens, UniProt Q5S007); cell-free assay, competition with immobilised ligand).
PRKCH (Homo sapiens, UniProt P24723); cell-free assay, competition with immobilised ligand — remaining binding: 74%.
It gave 98% for remaining binding (BRAF (Homo sapiens, UniProt P15056, V600E); cell-free assay, competition with immobilised ligand).
TIE1 (Homo sapiens, UniProt P35590); cell-free assay, competition with immobilised ligand — remaining binding: 94%.
It gave 63% for remaining binding (FLT3 (Homo sapiens, UniProt P36888, D835Y); cell-free assay, competition with immobilised ligand).
For CDKL1 (Homo sapiens, UniProt Q00532); cell-free assay, competition with immobilised ligand: remaining binding read 100%.
The remaining binding was 99% (AAK1 (Homo sapiens, UniProt Q2M2I8); binding).
It gave 85% for remaining binding (BMPR1A (Homo sapiens, UniProt P36894); binding, competition with immobilised ligand).
KIT (Homo sapiens, UniProt P10721); cell-free assay, competition with immobilised ligand — remaining binding: 75%.

Other studies, line by line
Concentration: 100 µM
`CCCCCCCCN=c1ccn(CCCCCCCCCCn2ccc(=NCCCCCCCC)cc2)cc1` gave a viability of 8.88% (A-375; 18 h).
`CCN(CC)CCOCCOC(=O)C1(c2ccccc2)CCCC1` has a viability of 88.8% (A-375; 18 h).
The viability of `CC(C)[C@@H]1CC[C@@H](C)C[C@H]1O` is reported as 134% (HaCaT; 60 h).
`C[C@H]1O[C@@H](O[C@H]2CC[C@@]3(C)[C@@H](CC[C@]4(C)[C@@H]3C=C[C@]35OC[C@@]6(CCC(C)(C)C[C@H]63)[C@@H](O)C[C@]54C)[C@]2(C)CO)[C@H](O)[C@@H](O[C@@H]2O[C@H](CO)[C@@H](O)[C@H](O)[C@H]2O)[C@H]1O` has a viability of 7.98% (A-375; 18 h).

Some of these lines once more (series 3):
For KIT (Homo sapiens, UniProt P10721, V559D); cell-free assay, competition with immobilised ligand: remaining binding read 90%.
CDKL2 (Homo sapiens, UniProt Q92772); cell-free assay, competition with immobilised ligand — remaining binding: 93%.
The remaining binding was 100% (LRRK2 (Homo sapiens, UniProt Q5S007); cell-free assay, competition with immobilised ligand).
PRKCH (Homo sapiens, UniProt P24723); cell-free assay, competition with immobilised ligand — remaining binding: 74%.
